Measured values gathered from unrelated publications.
A part holds a random share of what one study measured.

Set 1
Target: Hepatocyte nuclear factor 3-alpha (Foxa1, Mus musculus, UniProt P35582, residues 1-468, full length assumed)
Method: EMSA with sequencing
Molecule type: double-stranded DNA, one strand shown
Matrix: in vitro
Concentration: 10 and 20 nM
Notes: whole designed probe, mean of two concentrations, ends assumed
Baseline: negative control set to 0
Direction: higher = stronger binding
All sequences stand within: GTGAGCGGTGCCCATTGATGGGGAAC … TTTCACTGGGATCGTGGGGAC
Target sequence (chain): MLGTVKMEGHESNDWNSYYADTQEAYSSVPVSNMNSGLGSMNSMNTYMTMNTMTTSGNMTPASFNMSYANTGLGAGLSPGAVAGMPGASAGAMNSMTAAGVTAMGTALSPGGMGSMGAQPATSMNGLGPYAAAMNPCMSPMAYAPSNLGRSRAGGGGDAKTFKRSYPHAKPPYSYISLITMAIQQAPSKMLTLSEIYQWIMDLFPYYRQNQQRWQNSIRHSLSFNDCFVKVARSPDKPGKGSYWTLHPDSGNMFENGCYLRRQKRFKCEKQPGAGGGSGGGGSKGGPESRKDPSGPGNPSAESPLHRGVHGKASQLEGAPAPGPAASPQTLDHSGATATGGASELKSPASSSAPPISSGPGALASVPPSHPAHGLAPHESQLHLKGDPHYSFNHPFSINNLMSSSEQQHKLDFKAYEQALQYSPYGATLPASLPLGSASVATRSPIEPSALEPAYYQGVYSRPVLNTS
| Sequence | normalised bound fraction |
| --- | --- |
| CCTCTGATTTCTATAGCATGTTGTTAGTCCCTATATTTAACACATTGTTTCAGCCCTGTAGTATATTGAGCTACTGTTTTCCCTGCCCCATATGTCATCTTATTTAATAACTAGCATTTGTGGGGTTTATATTTTTCCAAATTATTTCAAATGTTTATTGATTTTACTCTTCACAGCATAAATATAAAGTGAA | 0.273 ratio |
| GGTCAGAGAATGCTAATCAGCCATGAAGTGGGCTTGCCATGACTCTGACACTGTATCTCCTGGTGCACTCTGCGGTAGGTGCATCTTTGCTGAGTAAATACAAAGTGAACTTGACGGGAAAGGAGACCTTAGCAGTCCTACAAAGGCAATTTTGCAAGCTGTCTGGCTGTGGAATTAGTGGAATGTTTTCTCA | 0.328 ratio |
| TAAGCTTACACTACACCATGCTAGGGAAGAGAATAGGTCATTTCCAGGTGTCTCTGTATGGAAAAGAGAATGTTTTCCTTTCCAGTAGCTTAAGTAATCTTCAAGTTTCATTGGCTCTGTTAGGGCTATTTTCATTTATTTCTGAACAAATGATCAGGATACACTAACTGTAGAGCCAATCACATTGTAACTA | -0.0352 ratio |
| AGGTGAATTGGCTGCTTCCATCCTGGCTTGGAACTTCAGACATAGAAGCCTTGGGACTTTCTCAGGACTTTCTCCAGATCTGACTCATGCTCAGCAATCTAGCATCTCTGTGGATCACGTGACCTTAGCCAGGGATGTTGGTGAAACTGTGTGTTGGTCTAGGTACCTAGCCCATGCTAGGTGCTCATCGAAT | -0.0578 ratio |
| AATGATTAGTTTACACATATACATCGCTTTTGAAGGCCCCCAAACACCAGGGGACCATAGAGATCCTTTGGACTTCATGATTCTGGGAGTGTTAGATTGCACTGATACCTGAAGAAATAGATCTTGAGGGCCTACATTCCAACCTCTGGGCTGAAGTACCAACCTCGGGGAGAAGGAAACAAAGATCACAATA | 0.0271 ratio |

Set 2
Target: Interferon regulatory factor 5, full length, phosphomimetic (IRF5, Homo sapiens, UniProt Q13568-2, residues 1-514, S451D/S453D/S456D/S462D)
Method: protein-binding microarray
Molecule type: double-stranded DNA, one strand shown
Matrix: in vitro
Concentration: 940 nM top
Notes: 60-bp whole probe
Together with: salmon DNA 0.4 mg/ml
Baseline: random background probes
Direction: higher = stronger binding
All sequences stand within: GCCTAGCAC … GTCTTGATTCGCTTGACGCTGCTG
| Sequence | fitted relative affinity [z-score] |
| --- | --- |
| GACGGTCTCGGTTTCGGCACGTGCTAG | 6.19 |
| TTAGGTATAGGTATCGGTTAGTGCTAG | 3.85 |
| TTAGGTATCGGGTATCAGTTAGTGCTA | 6.29 |
| GACGGTATCGTGTTTCGGGACGTGCTA | 2.62 |
| GACGGACTGGGGTTACGGGACGTGCTA | -0.311 |
| GACGGACTGGACTTGCGGGACGTGCTA | -0.772 |
| GGGGTTAGGGTCATTCATTCGTGCTAG | -0.249 |
| TCTGGGCCTCCATCATCTGTGTGCTAG | -0.382 |
| TTAGATTTCAGTTTCGATTTGTGCTAG | 8.85 |
| TTAGGACTGGTGTATCGGTTAGTGCTA | 0.888 |
| GACGGTATCCACTATCGGGACGTGCTA | 0.578 |
| GACGGTCTCGGTTCCGGGACGTGCTAG | 4.02 |
| ACTAATTTTCAATTCCTGAAGTGCTAG | 0.492 |
| TTAGATATCTTTTTCCTAATGTGCTAG | 0.491 |
| GACGGACTGGGGTCTGGGGACGTGCTA | -0.486 |

Set 3
Target: Sal-like protein 4, full length isoform A (SALL4, Homo sapiens, UniProt Q9UJQ4, residues 1-1053)
Chain of UniProt Q9UJQ4 (whole entry, looked up): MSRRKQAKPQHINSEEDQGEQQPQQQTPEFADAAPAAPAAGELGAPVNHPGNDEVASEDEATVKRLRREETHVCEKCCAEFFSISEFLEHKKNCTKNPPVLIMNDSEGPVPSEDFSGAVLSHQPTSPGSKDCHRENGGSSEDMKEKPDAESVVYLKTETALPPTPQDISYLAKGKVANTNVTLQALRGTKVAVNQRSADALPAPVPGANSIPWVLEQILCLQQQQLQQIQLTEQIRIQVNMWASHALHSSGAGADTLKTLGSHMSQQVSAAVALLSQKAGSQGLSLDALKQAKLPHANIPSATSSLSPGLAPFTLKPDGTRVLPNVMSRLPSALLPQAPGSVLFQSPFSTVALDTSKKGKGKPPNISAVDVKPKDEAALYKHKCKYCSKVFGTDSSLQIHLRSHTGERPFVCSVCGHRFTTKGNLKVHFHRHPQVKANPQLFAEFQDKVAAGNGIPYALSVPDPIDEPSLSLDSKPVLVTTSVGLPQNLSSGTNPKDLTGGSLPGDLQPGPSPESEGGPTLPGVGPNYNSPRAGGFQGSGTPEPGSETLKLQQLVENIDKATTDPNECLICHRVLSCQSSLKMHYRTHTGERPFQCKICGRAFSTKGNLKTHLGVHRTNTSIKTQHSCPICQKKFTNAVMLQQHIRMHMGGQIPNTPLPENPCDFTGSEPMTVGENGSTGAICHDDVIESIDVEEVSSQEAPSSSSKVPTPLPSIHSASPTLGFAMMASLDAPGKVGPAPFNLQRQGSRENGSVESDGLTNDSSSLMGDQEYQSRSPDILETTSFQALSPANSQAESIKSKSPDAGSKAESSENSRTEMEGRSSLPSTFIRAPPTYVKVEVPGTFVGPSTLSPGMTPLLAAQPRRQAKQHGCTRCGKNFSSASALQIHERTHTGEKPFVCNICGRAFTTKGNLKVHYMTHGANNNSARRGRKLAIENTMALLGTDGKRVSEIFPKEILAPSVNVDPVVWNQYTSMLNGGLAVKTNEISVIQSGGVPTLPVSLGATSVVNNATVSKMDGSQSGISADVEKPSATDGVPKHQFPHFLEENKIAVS
Method: universal PBM
Molecule type: double-stranded DNA, one strand shown
Matrix: in vitro
Concentration: 600 nM
Notes: 8-mer, flanks averaged, mean of replicates
Direction: higher = stronger binding
| Sequence | E-score |
| --- | --- |
| GATCTGCA | -0.113 |
| CCCTTTTA | 0.158 |
| CCACATCG | -0.133 |
| ATTTCTCC | 0.0825 |
| CATTTACC | 0.208 |
| CACAGATC | -0.0525 |
| ATGCATCG | 0.0304 |
| ATCCTAAA | 0.0224 |
| AGGCTACC | -0.216 |
| AGAATGCA | 0.108 |
| CCGGTGCA | -0.283 |
| CCCCATAG | -0.131 |
| CCTTAGCC | -0.133 |
| ACTGATTC | 0.0736 |
| AACGTTCA | 0.0836 |
| GCTATCCA | -0.0353 |
| CTCACACA | -0.0311 |

Set 4
Molecule: PhoQ, residues 284 288 289 292 302 303 SQSLSM
Method: Sort-seq
Item: YFP reporter
Matrix: E. coli
Notes: PhoQ-PhoP variant library
Together with: 10 µM Mg2+
Baseline: high Mg2+ state
Direction: higher = stronger signaling
| target | fold induction |
| --- | --- |
| PhoP, residues 12 14 15 18 19 NFFVT (Escherichia coli, UniProt P23836) | 12.1 |
| PhoP, residues 12 14 15 18 19 VGHWL (Escherichia coli, UniProt P23836) | 6.69 |
| PhoP, residues 12 14 15 18 19 TPWTL (Escherichia coli, UniProt P23836) | 1.05 |
| PhoP, residues 12 14 15 18 19 LHHYF (Escherichia coli, UniProt P23836) | 6.22 |

Excerpt of the above (set 2):
| Sequence | fitted relative affinity [z-score] |
| --- | --- |
| TTAGGTATAGGTATCGGTTAGTGCTAG | 3.85 |
| GACGGTATCCACTATCGGGACGTGCTA | 0.578 |
| TTAGGTATCGGGTATCAGTTAGTGCTA | 6.29 |
| TTAGATTTCAGTTTCGATTTGTGCTAG | 8.85 |
| ACTAATTTTCAATTCCTGAAGTGCTAG | 0.492 |
| GGGGTTAGGGTCATTCATTCGTGCTAG | -0.249 |
